Measurements of several laboratories.
Compare with care: the assays were run in different laboratories. ± marks the error that the study gave.

SMILES | test | test system | setting | how to read | quantity | value
COC1CN([C@H]2CC[C@H]([C@@]3(C)Oc4c(Cl)cc(C(=O)NCc5c(SC)cc(C)[nH]c5=O)c(C)c4O3)CC2)C1 | RNA-seq, item: EXOC6B mouse homolog | mouse, HT-1376 xenograft, whole blood | dose not given | baseline: vehicle | log2 fold change | 0.0432
COc1ccc(C(=O)CCc2cc(C(CCc3ccc(O)cc3OC)c3ccc(O)cc3)c(O)cc2OC)cc1 (racemic) | – | human blood | 30 µM, together with: A23187 | – | DHA level | 132000 ± 38400 pg/mL
CC(=O)[O-].O.[Cu+2].[O-]c1ccc(Br)cc1C=NCCN1CCOCC1 | hydroxyl radical scavenging | – | 80 µM | – | inhibition | 16.6%
CN1CCC[C@]1(C)/C=C/S(=O)(=O)NC(=O)Nc1c2c(cc3c1CCC3)CCC2 | – | human, whole blood ex vivo | 100 mg twice daily, day 14, 6 h, multiple ascending dose, together with: LPS and ATP | – | IL-1β inhibition | 99.6%
COc1ccc2cc3[n+](cc2c1OCCCOC(=O)c1cscn1)CCc1cc2c(cc1-3)OCO2 | – | C57BL/6 mice, high-fat diet | oral gavage, 10 mg/kg daily, 14 weeks | baseline: HFD control | plasma LDL-C reduction | 18.7%
COc1cc(O)ccc1CCC(c1ccc(O)cc1)c1cc2c(c(C)c1O)OC(c1ccc(O)cc1)CC2 (mixture of isomers) | – | human blood | 1 µM, together with: A23187 | – | 20-OH-LTB4 level | 429 ± 187 pg/mL
CC(CCC(=O)NCc1ccc(C(=O)NO)cc1)C1CCC2C3C(O)CC4CC(O)CCC4(C)C3CCC12C (centres unmarked) | item: GUDCA | PCK rat (Pkhd1 mutant), peripheral blood | oral gavage, dose not given, 5 months | baseline: total bile acids | relative abundance | 2.21%
N=C(N)NCCC[C@@H]1NC(=O)[C@H](CCCNC(=N)N)NC(=O)[C@@H](CCCNC(=N)N)NC(=O)[C@@H](CCCNC(=N)N)NC(=O)[C@@H](C(c2ccccc2)c2ccccc2)NC(=O)[C@H](Cc2c[nH]c3ccccc23)NC(=O)[C@@H](C(c2ccccc2)c2ccccc2)NC1=O | – | bacterial membrane liposomes | 50 µg/mL, 20 min | – | calcein leakage | 56 to 64%

For quick reference, copied from above:
SMILES | test | test system | setting | how to read | quantity | value
COc1ccc2cc3[n+](cc2c1OCCCOC(=O)c1cscn1)CCc1cc2c(cc1-3)OCO2 | – | C57BL/6 mice, high-fat diet | oral gavage, 10 mg/kg daily, 14 weeks | baseline: HFD control | plasma LDL-C reduction | 18.7%
